Measured values gathered from unrelated publications.
Numbered parts are unrelated; each lists some results of a single study.

Set 1
Target: Sal-like protein 4, full length isoform B (SALL4, Homo sapiens, UniProt Q9UJQ4-2, residues 1-616)
Method: universal PBM
Form: double-stranded DNA, one strand shown
Medium: in vitro
Tested at: not given
Notes: 8-mer, flanks averaged, mean of replicates
Direction: higher = stronger binding
Strand	E-score
CTACGGAA	0.106
CAGAAATA	0.319
GGGGCCAC	-0.292

Set 2
Target: Histone acetyltransferase KAT6A, winged helix 2, GST fusion (KAT6A, Homo sapiens, UniProt Q92794, residues 85-181)
Method: protein binding microarray
Form: double-stranded DNA, one strand shown
Medium: in vitro
Tested at: not given
Notes: 8-mer, flanks averaged, mean of 2 arrays, mostly near background
Reference: not given
Direction: higher = stronger binding
Construct (chain): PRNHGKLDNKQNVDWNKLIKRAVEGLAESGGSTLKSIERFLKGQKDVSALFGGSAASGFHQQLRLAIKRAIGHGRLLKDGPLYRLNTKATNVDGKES
Strand	E-score
CATTGTGG	-0.0197
GGATGACA	-0.0873
GTTTTTTA	0.062
ACCTCCGA	-0.00155
CAATCACG	-0.00592

Set 3
Target: Interferon regulatory factor 5, full length, phosphomimetic (IRF5, Homo sapiens, UniProt Q13568-2, residues 1-514, K96S/S451D/S453D/S456D/S462D)
Method: protein-binding microarray
Form: double-stranded DNA, one strand shown
Medium: in vitro
Tested at: 250 nM
Notes: 60-bp whole probe
With: salmon DNA 0.4 mg/ml
Reference: random background probes
Direction: higher = stronger binding
Strand	log fluorescence
GCCTAGCACGACGGTATCAGTATCGAGACGTGCTAGGTCTTGATTCGCTTGACGCTGCTG	3.2 z-score
GCCTAGCACGACGGTCTCGGTTTCAGGACGTGCTAGGTCTTGATTCGCTTGACGCTGCTG	1.04 z-score
GCCTAGCACGACGGTTTCGGTTTCGGGAGGTGCTAGGTCTTGATTCGCTTGACGCTGCTG	10.9 z-score
GCCTAGCACTTAAAACTGGGGTATCGATTAGTGCTAGTCTTGATTCGCTTGACGCTGCTG	3.03 z-score

Mixed results
Substance	target	assay	system	setting	scale	endpoint	result
PhoQ, residues 284 288 289 292 302 303 DDMDFR	PhoP, residues 12 14 15 18 19 SEGLL (Escherichia coli, UniProt P23836)	Sort-seq, measured: YFP reporter	E. coli	PhoQ-PhoP variant library, with: 10 µM Mg2+	reference: high Mg2+ state, higher = stronger signaling	fold induction	0.635

A few entries again (mixed results):
Substance	target	assay	system	setting	scale	endpoint	result
PhoQ, residues 284 288 289 292 302 303 DDMDFR	PhoP, residues 12 14 15 18 19 SEGLL (Escherichia coli, UniProt P23836)	Sort-seq, measured: YFP reporter	E. coli	PhoQ-PhoP variant library, with: 10 µM Mg2+	reference: high Mg2+ state, higher = stronger signaling	fold induction	0.635
